Earlier results, collected from citations in different studies.
Numbers after ± are the reported error.

| Compound | target | assay | setting | inhibition |
| --- | --- | --- | --- | --- |
| N#Cc1c(NC(=O)CN2CCSCC2)c(C(=O)c2ccccc2)n2c1CCC2 | Epidermal growth factor receptor (EGFR, Homo sapiens, UniProt P00533) |  | 10 µM | 97.6% |
| C=CCC(=N)NCCC[C@H](N)C(=O)O | Nitric oxide synthase 1 (Nos1, Rattus norvegicus, UniProt P29476) | NMDA-evoked cGMP accumulation | 0.1 µM | 80 to 90% |
| CCOC(=O)C(NC(=O)CN1C(=O)N/C(=C\c2ccc3c(c2)OCO3)C1=O)C(C)C (stereo not drawn) | α-glucosidase | enzyme activity | 200 µM | 57.4 ± 2.79% |
| Cc1ccc(-c2nc3ccc(NC(=O)CCl)cc3[nH]2)cc1 | Vascular endothelial growth factor receptor 2 (KDR, Homo sapiens, UniProt P35968) | inhibitor | concentration not given | 33.1% |
| CCOC(=O)C(CC)NC(=O)CN1C(=O)S/C(=C\c2ccc([N+](=O)[O-])cc2)C1=O (stereo not drawn) | α-glucosidase | enzyme activity | 100 to 200 µM | inactive |
| CCCCC#Cc1nc(N)c2ncn([C@@H]3SC[C@@H](O)[C@H]3O)c2n1 | Adenosine receptor A1 (ADORA1, Homo sapiens, UniProt P30542) |  | 10 µM | 39 ± 10% |
| COc1ccc(Nc2nn3c(N)c(C#N)c(-c4ccccc4OC)nc3c2C(N)=O)cc1 | proteinase | enzyme activity | concentration not given | 26.42 ± 0.06% |
| CNCCNC(=O)CN1C(=O)Cc2c([nH]c3ccc(Br)cc23)-c2ccc(Cl)cc21 | Trypanothione synthetase (Trypanosoma cruzi, UniProt Q9GT49) | enzyme activity | 30 µM | 40 to 60% |
| CCOC(=O)CNC(=O)CN1C(=O)S/C(=C\c2ccc(C)cc2)C1=O | α-glucosidase | enzyme activity | 100 µM | 51.3 ± 3.62% |
| C[C@@H]1O[C@@H](Oc2c(-c3cc(O)c(O)c(O)c3)oc3cc(O)cc(O)c3c2=O)[C@H](O[C@@H]2O[C@H](COC(=O)/C=C/c3ccc(O)c(O)c3)[C@@H](O)[C@H](O)[C@H]2O)[C@H](O)[C@H]1O | Sucrase-isomaltase, intestinal, C-terminal sucrase domain (SI, Homo sapiens, UniProt P14410) |  | concentration not given | inhibited |
| CCC(NC(=O)CN1C(=O)N/C(=C\c2ccc(C)cc2)C1=O)C(=O)OC (stereo not drawn) | α-glucosidase | enzyme activity | 200 µM | 39.3 ± 1.01% |
| CCC1=C(O)c2c(oc(-c3ccc4ccccc4c3)cc2=O)C(CC)(CC)C1=O | Tubulin alpha-1B chain/TUBB2B (Bos taurus, UniProt P81947+Q6B856) |  | concentration not given | 29% |
